Earlier results that unrelated publications cite.
Each line is one published result; not all experiments were run side by side. pEC50, pKd, pKi: −log10 of the molar value.
Chain of UniProt P28335 (whole entry, looked up): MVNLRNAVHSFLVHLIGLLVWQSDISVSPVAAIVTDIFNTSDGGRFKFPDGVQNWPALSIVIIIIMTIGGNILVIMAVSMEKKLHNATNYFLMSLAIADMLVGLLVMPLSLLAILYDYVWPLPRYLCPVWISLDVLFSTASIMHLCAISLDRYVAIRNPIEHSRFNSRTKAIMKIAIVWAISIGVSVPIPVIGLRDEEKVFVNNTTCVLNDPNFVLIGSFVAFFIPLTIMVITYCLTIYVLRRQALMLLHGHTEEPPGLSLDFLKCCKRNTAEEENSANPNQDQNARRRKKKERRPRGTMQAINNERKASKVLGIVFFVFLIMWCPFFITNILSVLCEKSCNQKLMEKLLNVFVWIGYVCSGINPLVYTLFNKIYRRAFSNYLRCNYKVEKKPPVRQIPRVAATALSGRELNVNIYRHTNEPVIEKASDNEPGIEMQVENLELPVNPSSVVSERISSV
Chain of UniProt P23921 (whole entry, looked up): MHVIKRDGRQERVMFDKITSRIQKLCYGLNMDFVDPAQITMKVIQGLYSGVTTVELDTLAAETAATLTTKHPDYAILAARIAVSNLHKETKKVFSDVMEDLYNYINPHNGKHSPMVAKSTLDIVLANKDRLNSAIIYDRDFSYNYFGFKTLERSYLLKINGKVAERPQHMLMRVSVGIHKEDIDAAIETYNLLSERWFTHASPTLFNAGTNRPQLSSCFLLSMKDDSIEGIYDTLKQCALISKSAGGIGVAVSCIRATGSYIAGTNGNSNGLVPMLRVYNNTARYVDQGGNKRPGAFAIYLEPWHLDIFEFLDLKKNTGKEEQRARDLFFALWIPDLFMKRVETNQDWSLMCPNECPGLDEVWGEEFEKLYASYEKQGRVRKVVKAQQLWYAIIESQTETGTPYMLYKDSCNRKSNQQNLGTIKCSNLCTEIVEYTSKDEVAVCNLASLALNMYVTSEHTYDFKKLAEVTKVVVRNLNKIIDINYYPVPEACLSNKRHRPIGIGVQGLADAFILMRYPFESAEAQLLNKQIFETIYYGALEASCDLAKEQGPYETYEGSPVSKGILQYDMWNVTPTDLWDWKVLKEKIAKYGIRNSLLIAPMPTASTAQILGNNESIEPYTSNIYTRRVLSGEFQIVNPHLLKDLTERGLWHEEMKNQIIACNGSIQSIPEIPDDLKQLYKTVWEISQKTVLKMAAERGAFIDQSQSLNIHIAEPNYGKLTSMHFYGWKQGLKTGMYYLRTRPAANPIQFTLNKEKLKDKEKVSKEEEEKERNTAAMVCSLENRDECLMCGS
Chain of UniProt P41143 (whole entry, looked up): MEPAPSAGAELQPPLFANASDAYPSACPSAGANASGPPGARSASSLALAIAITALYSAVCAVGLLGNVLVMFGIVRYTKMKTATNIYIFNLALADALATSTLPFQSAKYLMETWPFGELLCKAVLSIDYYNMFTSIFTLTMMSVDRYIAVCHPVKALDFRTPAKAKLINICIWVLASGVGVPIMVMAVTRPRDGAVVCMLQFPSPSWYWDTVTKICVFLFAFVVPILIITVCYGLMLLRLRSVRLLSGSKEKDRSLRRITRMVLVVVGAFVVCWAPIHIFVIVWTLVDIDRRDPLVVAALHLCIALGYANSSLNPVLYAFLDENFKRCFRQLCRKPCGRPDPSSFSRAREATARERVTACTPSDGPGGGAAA
Chain of UniProt P21554 (whole entry, looked up): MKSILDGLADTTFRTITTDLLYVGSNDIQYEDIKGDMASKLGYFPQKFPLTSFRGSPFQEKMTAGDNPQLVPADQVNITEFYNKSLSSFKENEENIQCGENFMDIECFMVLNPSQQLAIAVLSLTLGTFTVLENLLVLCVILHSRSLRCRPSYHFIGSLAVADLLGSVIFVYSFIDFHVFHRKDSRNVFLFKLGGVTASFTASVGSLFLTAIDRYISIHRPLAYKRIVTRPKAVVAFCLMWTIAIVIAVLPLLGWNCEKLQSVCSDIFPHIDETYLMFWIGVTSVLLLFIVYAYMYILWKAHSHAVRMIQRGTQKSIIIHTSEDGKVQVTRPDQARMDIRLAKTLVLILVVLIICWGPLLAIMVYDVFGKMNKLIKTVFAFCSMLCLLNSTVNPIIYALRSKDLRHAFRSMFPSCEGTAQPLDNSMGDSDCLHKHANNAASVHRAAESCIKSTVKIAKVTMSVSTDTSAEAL
Chain of UniProt Q15391 (whole entry, looked up): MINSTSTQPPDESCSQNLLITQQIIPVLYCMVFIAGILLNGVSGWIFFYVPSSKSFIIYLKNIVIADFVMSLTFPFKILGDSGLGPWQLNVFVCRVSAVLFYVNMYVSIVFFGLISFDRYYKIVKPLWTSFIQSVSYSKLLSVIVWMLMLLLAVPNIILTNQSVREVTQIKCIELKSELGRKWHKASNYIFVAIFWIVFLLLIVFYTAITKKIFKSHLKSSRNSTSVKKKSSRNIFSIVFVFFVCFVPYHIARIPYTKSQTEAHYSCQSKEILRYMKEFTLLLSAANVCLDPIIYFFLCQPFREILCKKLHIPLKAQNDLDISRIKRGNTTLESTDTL
Chain of UniProt Q92911 (whole entry, looked up): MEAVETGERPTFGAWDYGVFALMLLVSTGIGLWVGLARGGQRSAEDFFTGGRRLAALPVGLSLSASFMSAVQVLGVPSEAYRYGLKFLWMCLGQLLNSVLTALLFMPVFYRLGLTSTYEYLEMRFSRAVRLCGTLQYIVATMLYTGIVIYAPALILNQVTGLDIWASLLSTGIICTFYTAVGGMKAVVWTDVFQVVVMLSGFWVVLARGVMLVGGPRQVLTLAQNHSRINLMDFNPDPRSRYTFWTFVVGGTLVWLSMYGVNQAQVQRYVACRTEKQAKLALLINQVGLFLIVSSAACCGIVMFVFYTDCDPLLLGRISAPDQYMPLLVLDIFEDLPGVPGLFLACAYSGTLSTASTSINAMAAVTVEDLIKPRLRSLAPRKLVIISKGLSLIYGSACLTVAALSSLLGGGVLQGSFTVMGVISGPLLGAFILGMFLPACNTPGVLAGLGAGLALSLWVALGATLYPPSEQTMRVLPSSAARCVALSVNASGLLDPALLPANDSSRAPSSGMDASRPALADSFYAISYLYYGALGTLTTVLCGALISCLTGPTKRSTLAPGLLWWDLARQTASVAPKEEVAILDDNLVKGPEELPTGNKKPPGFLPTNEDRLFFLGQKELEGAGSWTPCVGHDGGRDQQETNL
Chain of UniProt Q01827 (whole entry, looked up): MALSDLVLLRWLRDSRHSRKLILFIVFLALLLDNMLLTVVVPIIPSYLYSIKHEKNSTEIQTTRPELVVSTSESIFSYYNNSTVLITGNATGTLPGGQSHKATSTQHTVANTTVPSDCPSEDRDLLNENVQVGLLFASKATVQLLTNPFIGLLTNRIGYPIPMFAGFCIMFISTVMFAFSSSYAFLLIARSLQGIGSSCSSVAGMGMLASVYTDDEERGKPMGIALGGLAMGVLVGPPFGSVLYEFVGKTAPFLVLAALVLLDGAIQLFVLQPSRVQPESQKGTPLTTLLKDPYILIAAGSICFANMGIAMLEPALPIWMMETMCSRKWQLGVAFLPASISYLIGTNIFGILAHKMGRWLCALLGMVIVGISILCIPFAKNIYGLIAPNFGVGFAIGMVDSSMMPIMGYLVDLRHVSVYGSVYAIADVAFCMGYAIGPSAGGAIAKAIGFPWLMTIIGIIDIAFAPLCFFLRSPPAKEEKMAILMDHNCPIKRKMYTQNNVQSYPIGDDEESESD

`Nc1nc(Cl)nc2c1ncn2[C@@H]1O[C@H](COP(=O)(O)OP(=O)(O)OP(=O)(O)O)[C@@H](O)[C@@H]1F` gave a pEC50 of 7.15 (Ribonucleoside-diphosphate reductase large subunit (Homo sapiens, UniProt P23921); oligomerization).
`O=C(O)[C@H]1O[C@H](OP(=O)(O)OP(=O)(O)OC[C@H]2O[C@@H](n3ccc(=O)[nH]c3=O)[C@H](O)[C@@H]2O)[C@H](O)[C@@H](O)[C@@H]1O` gave a pEC50 of 6.43 (P2Y purinoceptor 14 (P2RY14, Homo sapiens, UniProt Q15391); cAMP level, agonist).
For `CN1C/C(=C\c2ccc(Cl)cc2Cl)C/C(=C\c2ccc(Cl)cc2Cl)C1`, the pKi was 6.66 (Slc18a2 (Rattus norvegicus, UniProt Q01827); substrate site binding).
For `C=CCN(CC=C)CCc1c[nH]c2ccc(Br)cc12`, the pKi was under 5.00 (OPRD1 (Homo sapiens, UniProt P41143)).
The pKd of `CC(C)OC(=O)[C@H]1[C@@H](c2ccc(I)cc2)C[C@@H]2CC[C@H]1N2C` [iodine-125 labelled] is reported as 9.92 (dopamine transporter, high-affinity site, mouse; CD-1 mouse striatal membranes).
`CC(C)(c1ccccc1)c1ccc(O)cc1` has a pEC50 of 7.00 (estrogen receptor; reporter gene, agonist).
`CCOc1cc(Oc2ccc(C(F)(F)F)cc2Cl)ccc1[N+](=O)[O-]` gave a pEC50 of about 5.70 (SLC5A5 (Homo sapiens, UniProt Q92911); iodide uptake, inhibitor; HEK293T expressing human NIS).
The pKi of `C=CCN(CC=C)CCc1c[nH]c2ccccc12` is reported as 6.41 (HTR2C (Homo sapiens, UniProt P28335); binding; cloned human receptor; with: [3H]mesulergine).
`cyclic` gave a pEC50 of 7.39 (accessory gene regulator protein C (Staphylococcus aureus, UniProt O33587); reporter gene, agonist, β-lactamase reporter).
For `CC=O`, the pKi was 3.26 (yeast alcohol dehydrogenase H48Q; inhibitor, product inhibition, slope constant; pH 7.3, 30 °C).
For `N#Cc1c(N)nc(SCC(N)=O)c(C#N)c1-c1ccc(OCC2CC2)cc1`, the pKi was 6.87 (adenosine receptor A2B (mouse); binding, partial agonist).
`CCc1c(C(=O)NCCc2ccc(N(C)C)cc2)[nH]c2ccc(Cl)cc12` has a Kb of 207 nM (CNR1 (Homo sapiens, UniProt P21554); allosteric modulator, radioligand binding; with: [3H]CP55,940).
The pEC50 of `C[C@@H](CO)CCC[C@@H](C)[C@H]1CC[C@H]2[C@@H]3CC=C4C[C@@H](O)CC[C@]4(C)[C@H]3CC[C@]12C` is reported as 5.00 to 6.00 (LXR; reporter gene, agonist).
`O=C(Nc1cc(Cl)ccc1O)Nc1cc(C(F)(F)F)ccc1Cl` has a pEC50 of 4.89 to 5.52 (nicotinic acetylcholine receptor alpha7; agonist).
`Nc1ncnc2c1ncn2[C@@H]1O[C@H](COP(=O)(O)OP(=O)(O)O)[C@@H](O)[C@H]1O` gave a pEC50 of 5.64 (P2Y1 receptor; reporter gene, yeast reporter system; 24 h).
For `CN1[C@@H](CC(=O)c2ccccc2)CCC[C@H]1C[C@H](O)c1ccccc1`, the pKi was 7.80 (alpha4beta2 nicotinic acetylcholine receptor; binding; with: [3H]nicotine).
`O=c1c2nc(Br)n([C@@H]3O[C@@H]4CO[P@@](O)(=S)O[C@H]4[C@H]3O)c2nc2[nH]c(-c3ccccc3)cn12` — result for “Km or Ki”: 55600 nM (PDE1C; cyclic nucleotide hydrolysis, substrate or inhibitor, isothermal titration calorimetry).

Some of these lines once more:
`CCc1c(C(=O)NCCc2ccc(N(C)C)cc2)[nH]c2ccc(Cl)cc12` has a Kb of 207 nM (CNR1 (Homo sapiens, UniProt P21554); allosteric modulator, radioligand binding; with: [3H]CP55,940).
`Nc1nc(Cl)nc2c1ncn2[C@@H]1O[C@H](COP(=O)(O)OP(=O)(O)OP(=O)(O)O)[C@@H](O)[C@@H]1F` gave a pEC50 of 7.15 (Ribonucleoside-diphosphate reductase large subunit (Homo sapiens, UniProt P23921); oligomerization).
`cyclic` gave a pEC50 of 7.39 (accessory gene regulator protein C (Staphylococcus aureus, UniProt O33587); reporter gene, agonist, β-lactamase reporter).
